Published values pooled from the literature.
Each line is one published result; not all experiments were run side by side. ± gives the spread as reported.
UniProt Q8NB78, sequence (whole entry, looked up): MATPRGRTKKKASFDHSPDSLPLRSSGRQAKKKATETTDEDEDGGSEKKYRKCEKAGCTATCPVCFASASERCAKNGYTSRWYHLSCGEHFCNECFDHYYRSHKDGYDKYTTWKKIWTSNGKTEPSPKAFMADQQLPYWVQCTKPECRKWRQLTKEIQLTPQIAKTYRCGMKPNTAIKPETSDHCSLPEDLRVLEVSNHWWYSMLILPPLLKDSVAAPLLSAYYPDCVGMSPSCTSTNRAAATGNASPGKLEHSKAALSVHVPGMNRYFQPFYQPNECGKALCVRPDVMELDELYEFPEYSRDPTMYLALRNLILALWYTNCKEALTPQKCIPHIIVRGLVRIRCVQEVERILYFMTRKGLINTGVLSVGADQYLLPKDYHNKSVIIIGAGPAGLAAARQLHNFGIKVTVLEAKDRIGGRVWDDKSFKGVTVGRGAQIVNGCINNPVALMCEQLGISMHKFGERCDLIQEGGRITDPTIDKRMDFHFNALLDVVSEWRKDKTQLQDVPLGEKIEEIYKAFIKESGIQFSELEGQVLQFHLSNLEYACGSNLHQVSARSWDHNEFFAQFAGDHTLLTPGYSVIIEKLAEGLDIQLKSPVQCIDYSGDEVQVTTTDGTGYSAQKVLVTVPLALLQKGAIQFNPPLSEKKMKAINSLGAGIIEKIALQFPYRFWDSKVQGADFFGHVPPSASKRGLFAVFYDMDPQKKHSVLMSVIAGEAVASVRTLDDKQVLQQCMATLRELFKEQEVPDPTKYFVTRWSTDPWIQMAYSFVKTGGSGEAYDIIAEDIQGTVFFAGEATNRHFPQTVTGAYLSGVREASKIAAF

With COC(C(=NOCC(=O)Nc1ccccc1)C(O)C(C)O)C1Cc2cc3cc(OC4CC(OC5CC(O)C(O)C(C)O5)C(O)C(C)O4)c(C)c(O)c3c(O)c2C(=O)C1OC1CC(OC2CC(OC3CC(C)(O)C(O)C(C)O3)C(O)C(C)O2)C(O)C(C)O1 (centres unmarked) the GI50 was 36 nM (TC-32; cell growth; 72 h).
CCN1C(=O)N(c2cc(NC(=O)c3cccc(C(F)(F)F)c3)ccc2C)Cc2cnc(Nc3ccc(C)nc3)nc21 gave a GI50 of 57 nM (Huh-7; cell growth or viability, ATP luminescence; 72 h).
For Cc1nc(F)ccc1-c1cc(Cn2ccn(C)c2=N)cc(C(=O)NCc2ccc(Cl)c(Cl)c2)c1, the GI50 was 8000 nM (MV4-11 p53 shRNA_427; cell proliferation; 72 h).
For CC/C=C\C/C=C\C/C=C\C/C=C\C/C=C\C/C=C\CCC(=O)Nc1ccn(C2OC(CO)C(O)C2(F)F)c(=O)n1 (centres unmarked), the GI50 was 41.4 nM (LOX IMVI; cell growth or viability, SRB).
For CCN1CCN(Cc2ccc(C(=O)Nc3ccc(C)c(NCc4cnc5[nH]ccc5c4OC)c3)cc2C(F)(F)F)CC1, the GI50 was 3070 nM (SK-BR-3; cell growth or viability; 48 h).
For CC[C@H]1[C@@H](O)[C@@H]2[C@H](CC[C@]3(C)[C@@H]([C@H](C)CCOS(=O)(=O)[O-])CC[C@@H]23)[C@@]2(C)CC[C@@H](O)C[C@@H]12.[Na+], “whole-body fat mass” read 38.4 ± 1.2% (EchoMRI; ob/ob NASH mouse model; oral, 3 mg/kg once daily, before treatment, baseline of 8 week study; reference: body weight).
CC(C)C[C@H](NC(=O)[C@H](CO)NC(=O)[C@H](CCCNC(=N)N)NC(=O)[C@H](CC(=O)O)NC(=O)[C@H](CCC(=O)O)NC(=O)[C@H](C)NC(=O)[C@@H]1CCCN1C(=O)[C@H](C)NC(=O)[C@H](CCC(=O)O)NC(=O)[C@@H]1CCCN1C(=O)[C@@H]1CCCN1)C(N)=O: “HVA level reduction” 24% (dopamine system; rhesus monkey, contralateral caudate nucleus; intranasal, dose not given, repeated dose escalation; reference: vehicle).
The GI50 of Cc1ccc(Nc2ncc3c(n2)N(C)C(=O)N(c2cc(NC(=O)c4ccc(CN5CCC(N(C)C)C5)c(C(F)(F)F)c4)ccc2C)C3)cn1 (centres unmarked) is reported as 120 nM (Hep3B; cell growth or viability, ATP luminescence; 72 h).
The growth percent of COc1cc(CNC(=O)C[C@H](C)CCC=C(C)C)ccc1OCc1cn(-c2ccc(F)cc2)nn1 is reported as 52.3% (RXF 393; SRB; 10 µM, 48 h).
The GI50 of COC(C(=NOC(C)(C)C)C(O)C(C)O)C1Cc2cc3cc(OC4CC(OC5CC(O)C(O)C(C)O5)C(O)C(C)O4)c(C)c(O)c3c(O)c2C(=O)C1OC1CC(OC2CC(OC3CC(C)(O)C(O)C(C)O3)C(O)C(C)O2)C(O)C(C)O1 (centres unmarked) is reported as 416 nM (TC-32; cell growth; 72 h).
For COc1cc(CNC(=O)C[C@H](C)CCC=C(C)C)ccc1OCc1cn(-c2ccc(Cl)c(Cl)c2)nn1, the growth percent was 74.8% (RXF 393; SRB; 10 µM, 48 h).
Cc1ccc(Nc2ncc3c(n2)N(C)C(=O)N(c2cc(NC(=O)c4ccc(N5CCN(C)CC5)c(C(F)(F)F)c4)ccc2C)C3)cn1 has a GI50 of 138 nM (Hep3B; cell growth or viability, ATP luminescence; 72 h).
CCON=C(C(O)C(C)O)C(OC)C1Cc2cc3cc(OC4CC(OC5CC(O)C(O)C(C)O5)C(O)C(C)O4)c(C)c(O)c3c(O)c2C(=O)C1OC1CC(OC2CC(OC3CC(C)(O)C(O)C(C)O3)C(O)C(C)O2)C(O)C(C)O1 (centres unmarked) gave a GI50 of 44 nM (TC-32; cell growth; 72 h).
CCC(=C(c1ccc(Cl)cc1)c1ccc(OCCCN(C)C)cc1)c1ccc(OC)cc1 has a GI50 of 5760 nM (EKVX; cell growth or viability, SRB).
COC(C(=NOCC(=O)Nc1ccncc1)C(O)C(C)O)C1Cc2cc3cc(OC4CC(OC5CC(O)C(O)C(C)O5)C(O)C(C)O4)c(C)c(O)c3c(O)c2C(=O)C1OC1CC(OC2CC(OC3CC(C)(O)C(O)C(C)O3)C(O)C(C)O2)C(O)C(C)O1 (centres unmarked) gave a GI50 of 81 nM (TC-32; cell growth; 72 h).
The GI50 of COC(=O)c1cc(=O)[nH]c2c(-c3cc(OC)c(OC)c(OC)c3)csc12 is reported as < 10000 nM (best of six cancer lines; SRB).
The Ki of COc1ccc(CCCN[C@H]2CCC[C@@H]2CN[C@H]2CCC[C@@H]2CNCCCCN[C@@H]2CCC[C@H]2CN)cc1 is reported as 4500 nM (KDM1B (Homo sapiens, UniProt Q8NB78); enzyme activity, inhibitor).
With [64Cu+2].c1cnc(CNCc2ccc(CN3CCCN4CCNCCCN(CC4)CC3)cc2)nc1 the tumour-to-blood ratio was 28.1 ± 4.78 (CXCR4; NOD/SCID mouse, U87 and U87-stb-CXCR4 xenografts; iv, 90 min, no blocking dose; reference: U87-stb-CXCR4 tumour over blood).
The GI50 of CC(=C(c1ccc(O)cc1)c1ccc(Cl)cc1)c1ccc(Cl)cc1 is reported as 820 nM (EKVX; cell growth or viability, SRB).
For Cc1ccc(Nc2ncc3c(n2)N(C)C(=O)N(c2cc(NC(=O)c4ccccc4)ccc2C)C3)cn1, the GI50 was 8660 nM (Hep3B; cell growth or viability, ATP luminescence; 72 h).

A few entries again:
CCN1C(=O)N(c2cc(NC(=O)c3cccc(C(F)(F)F)c3)ccc2C)Cc2cnc(Nc3ccc(C)nc3)nc21 gave a GI50 of 57 nM (Huh-7; cell growth or viability, ATP luminescence; 72 h).
For Cc1nc(F)ccc1-c1cc(Cn2ccn(C)c2=N)cc(C(=O)NCc2ccc(Cl)c(Cl)c2)c1, the GI50 was 8000 nM (MV4-11 p53 shRNA_427; cell proliferation; 72 h).
